{"data": "Measured values from different studies", "cell line": "HEK293", "note": "Compare with care: the assays were run in different laboratories. Values joined by “and” are separate records of one study, mostly repeats; a detail may differ. Numbers after ± are the reported error."}
{"SMILES": "CN1C(=O)c2sccc2N(C)c2nc(Nc3ccc(S(N)(=O)=O)cc3)ncc21", "assay": "Western blot, refers to: MOB1 phospho-Thr35", "setting": "10 µM, 4 h, added: H2O2 50 µM for 2 h", "how to read": "reference: DMSO", "measurement": "phosphorylated MOB1 level", "value": "decreased"}
{"SMILES": "C[C@@H](c1cc(Cl)cc(Cl)c1)N(C)c1ncc2c(N)nc(N)nc2n1", "assay": "MTT", "how to read": "reference: CC50 over IC50", "measurement": "selectivity index", "value": 3.82}
{"SMILES": "COc1cc2c(OCCCN3CCOCC3)c3c(c(-c4ccc5c(c4)OCO5)c2cc1OC)C(=O)OC3", "assay": "endosomal acidification", "measurement": "IC50", "value": "74.3 ± 23.9 nM"}
{"SMILES": "C[C@H]1CCC/C=C/[C@@H]2C[C@H](O)C[C@H]2[C@H](O)/C=C/C(=O)O1", "assay": "protein secretion", "setting": "concentration not given, unit not given", "how to read": "reference: mock", "measurement": "secreted Gaussia luciferase", "value": 0.0413}
{"SMILES": "CCOc1c2c(c(-c3ccc4c(c3)OCO4)c3cc(OC)c(OC)cc13)C(=O)OC2", "assay": "endosomal acidification", "measurement": "IC50", "value": "254 ± 49 nM"}
{"SMILES": "CC(CO)CN(C)c1ncnc2[nH]cc(-c3cccc(Cl)c3)c12 (stereo not drawn)", "assay": "Western blot, refers to: MOB1 phospho-Thr35", "setting": "10 µM, 4 h, added: H2O2 50 µM for 2 h", "how to read": "reference: DMSO", "measurement": "phosphorylated MOB1 level", "value": "decreased"}
{"SMILES": "C/C=C(/C)C(=O)O[C@H]1C(C)=C2[C@H]([C@@H]1OC(=O)CCCCCCC)[C@@](C)(OC(C)=O)C[C@H](OC(=O)CCC)[C@@]1(O)[C@H]2OC(=O)[C@@]1(C)O", "assay": "western blot", "setting": "3 µM, 6 h, unit not given", "how to read": "reference: mock", "measurement": "BiP protein level", "value": "2.04 and 2.27 and 1.68 and 1.61 and 1.73 and 1.47"}
{"SMILES": "CN1CCC(NCc2cccc(-c3ccc(S(=O)(=O)NCc4ccccc4)cc3)c2)CC1", "assay": "MTT", "how to read": "reference: CC50 over IC50", "measurement": "selectivity index", "value": 54.5}
{"SMILES": "C[C@@H]1C[C@@H]([C@H](O)CC2CC(=O)NC(=O)C2)C(=O)[C@@H](C)C1", "assay": "protein secretion", "setting": "concentration not given, unit not given", "how to read": "reference: mock", "measurement": "secreted Gaussia luciferase", "value": 0.0927}
{"SMILES": "COc1cc2c(OCCCN3CCN(CCO)CC3)c3c(c(-c4ccc5c(c4)OCO5)c2cc1OC)C(=O)OC3", "assay": "endosomal acidification", "measurement": "IC50", "value": "104 ± 21.2 nM"}
{"SMILES": "Clc1cccc(-c2c[nH]c3ncnc(N4CCOCC4)c23)c1", "assay": "reporter gene, 8xGTIIC luciferase", "setting": "10 µM, 48 h", "how to read": "reference: DMSO", "measurement": "YAP/TAZ-TEAD reporter activity", "value": "increased"}
{"SMILES": "O[C@@H](c1cc(C(F)(F)F)nc2c(C(F)(F)F)cccc12)[C@H]1CCCCN1", "assay": "MTT", "how to read": "reference: CC50 over IC50", "measurement": "selectivity index", "value": 498}
{"SMILES": "Clc1cccc(-c2c[nH]c3nccc(N4CCOCC4)c23)c1", "assay": "reporter gene, 8xGTIIC luciferase", "setting": "10 µM, 48 h", "how to read": "reference: DMSO", "measurement": "YAP/TAZ-TEAD reporter activity", "value": "increased"}
{"SMILES": "COc1cc2c(OC(C)=O)c3c(c(-c4ccc5c(c4)OCO5)c2cc1OC)C(=O)N(CCO)C3=O", "assay": "endosomal acidification", "setting": "4 h", "measurement": "IC50", "value": "> 10000 nM"}
{"SMILES": "CN(CCO)c1ncnc2[nH]cc(-c3cccc(Cl)c3)c12", "assay": "Western blot, refers to: MOB1 phospho-Thr35", "setting": "10 µM, 4 h, added: H2O2 50 µM for 2 h", "how to read": "reference: DMSO", "measurement": "phosphorylated MOB1 level", "value": "decreased"}
{"SMILES": "CC(C)(C)C(O)C(Oc1ccc(-c2ccccc2)cc1)n1cncn1 (stereo not drawn)", "assay": "MTT", "how to read": "reference: CC50 over IC50", "measurement": "selectivity index", "value": 11.6}
{"SMILES": "COc1cc2c(O)c3c(c(-c4ccc5c(c4)OCO5)c2cc1OC)C(=O)OC3", "assay": "FITC-dextran", "setting": "1 to 7 µM, 4 h", "measurement": "endosomal pH", "value": 7}
{"SMILES": "OC1CCN(c2ncnc3[nH]cc(-c4cccc(Cl)c4)c23)CC1", "assay": "reporter gene, 8xGTIIC luciferase", "setting": "10 µM, 48 h", "how to read": "reference: DMSO", "measurement": "YAP/TAZ-TEAD reporter activity", "value": "increased"}
